Results of several laboratories.
Lines come from different studies, so protocols differ. Values joined by “and” are separate records of one study, mostly repeats; a detail may differ. ± gives the spread as reported.

| Compound | target or system | assay | test system | conditions | scale | quantity | value |
| --- | --- | --- | --- | --- | --- | --- | --- |
| O=c1nc(NO)ccn1[C@@H]1O[C@H](CO)[C@@H](O)[C@H]1O |  |  | rat maternal blood dialysate | 1000 ng/mL, 6 h, 10 °C, high QC concentration, together with: molnupiravir |  | autosampler stability | 98.5 ± 16.8% |
| Cc1cc(C(=O)NC(C)(C)COc2cccc3c2C(N)=NS(=O)(=O)N3)cc(C)n1 | Salmonella typhimurium | Ames test, initial | TA1537 | 500 µg/plate | reference: solvent control | revertant ratio | 1.2 |
| C[C@]1(CO)Cc2ncn(-c3ccc(C#N)c(Cl)c3)c2C(=O)O1 |  |  | human, plasma | 2 mg single dose, geometric mean |  | half-life | 4.8 h |
| CCC(C)n1ncn(-c2ccc(N3CCN(c4ccc(OC[C@H]5CO[C@](Cn6cncn6)(c6ccc(F)cc6F)O5)cc4)CC3)cc2)c1=O (stereo partly shown) | African green monkey cells |  |  | 5 days |  | CC50 | > 100 µM |
| O=c1ccc2cc3ccoc3cc2o1 |  | post-procedure stability | rat plasma | 200 ng/mL, 3 h, room temperature |  | accuracy | 117% |
| CC[C@H](C)[C@H](NC(=O)[C@H](Cc1ccccc1)NC(=O)[C@H](CCC(=O)O)NC(=O)[C@H](CCCNC(=N)N)NC(=O)[C@H](C)NC(=O)[C@H](C)NC(=O)[C@H](CCC(N)=O)NC(=O)[C@H](CCC(=O)O)NC(=O)[C@H](CCC(=O)O)NC(=O)[C@H](CC(C)C)NC(=O)[C@H](Cc1ccc(O)cc1)NC(=O)[C@H](CO)NC(=O)[C@H](CO)NC(=O)[C@@H](NC(=O)[C@H](CC(=O)O)NC(=O)[C@H](CO)NC(=O)[C@@H](NC(=O)[C@H](Cc1ccccc1)NC(=O)[C@@H](NC(=O)CNC(=O)[C@H](CCC(=O)O)NC(=O)[C@H](C)NC(=O)CCc1cnc[nH]1)[C@@H](C)O)[C@@H](C)O)C(C)C)C(=O)N[C@@H](C)C(=O)N[C@@H](Cc1c[nH]c2ccccc12)C(=O)N[C@@H](CC(C)C)C(=O)N[C@H](C(=O)N[C@@H](CCCNC(=N)N)C(=O)NCC(=O)N[C@@H](CCCNC(=N)N)C(=O)N[C@@H](CCCCNC(=O)COCCOCCNC(=O)COCCOCCNC(=O)CC[C@H](NC(=O)CCCCCCCCCCCCCCCCC(=O)O)C(=O)O)C(=O)NCC(=O)NCC(=O)N[C@@H](CO)C(=O)N[C@@H](CCCCNC(=O)[C@H](CCCCNC(=O)[C@H](CCCCNc1c(NCCCCCN(O)C(=O)CCC(=O)NCCCCCN(O)C(=O)CCC(=O)NCCCCCN(O)C(C)=O)c(=O)c1=O)Nc1c(NCCCCCN(O)C(=O)CCC(=O)NCCCCCN(O)C(=O)CCC(=O)NCCCCCN(O)C(C)=O)c(=O)c1=O)NC(=O)[C@H](CCCCNc1c(NCCCCCN(O)C(=O)CCC(=O)NCCCCCN(O)C(=O)CCC(=O)NCCCCCN(O)C(C)=O)c(=O)c1=O)Nc1c(NCCCCCN(O)C(=O)CCC(=O)NCCCCCN(O)C(=O)CCC(=O)NCCCCCN(O)C(C)=O)c(=O)c1=O)C(=O)O)C(C)C [zirconium-89 labelled] |  | ex vivo gamma counting | Sprague-Dawley rat, male, duodenum | intravenous, 1 nmol, 24 h |  | tissue uptake | 0.385 %ID/g and 0.382 %ID/g and 0.369 %ID/g and 0.283 %ID/g and 0.332 %ID/g |
| O=S(=O)(Nc1ccccc1)c1ccc(NC(=S)Nc2ccccc2)cc1 |  |  | female mice, lung | oral, 80 mg/kg daily 14 days | reference: body weight | relative organ weight | 0.9% |
| O=C1Nc2cc3[nH]nc(-c4ccncc4)c3cc2CN1Cc1ccccc1 |  | CTCAE v4.03 | advanced solid tumour patients | intravenous, 6.4 mg/kg |  | patients with acneiform dermatitis | 0% |
| CCc1ccc(CC/C=C/c2ccc3c(c2)C(=O)CC3)cc1 |  |  | Sprague-Dawley rat, female | oral, 30 mg/kg/day, 14 days |  | Lymphocyte percentage | 82.2% |
| CCc1nc(C(N)=O)c(Nc2ccc(N3CCC(N4CCN(C)CC4)CC3)c(OC)c2)nc1NC1CCOCC1 |  |  | patients, plasma | oral, 200 mg once daily, cycle 1 day 15, median |  | Cmin | 1170 ng/mL |
| CN1CC[C@@H](c2c(O)cc(O)c3c(=O)cc(-c4ccc(C(F)(F)F)cc4Cl)oc23)[C@@H]1CO |  | measured: Epistaxis | B-cell malignancies | oral, 100 mg, intermittent dosing |  | patients with adverse event | 0% |
| COc1cc2c(Oc3ccc4[nH]c(C)cc4c3F)ccnc2cc1OCC1(N)CC1 |  |  | paediatric recurrent refractory sarcoma | 12 mg |  | grade 1 or 2 ALT elevation | 54.5% |
| C[C@@H]1OC(=O)NN=C1c1ccc(-c2ccc(F)cc2)c(C(F)(F)F)c1 |  | phase I trial, measured: non-cardiac chest pain | human patients | 20 mg load, 1 mg daily, worst grade 1 |  | patients with TEAE | 0% |
| COc1ccc(-c2c(-c3ccc(C#N)c(F)c3)nc(N3CCC(N)CC3)n(C)c2=O)cc1F |  | measured: Diarrhea | neuroendocrine neoplasm patients | oral, 60 mg, grade 3 to 4, dose expansion |  | treatment-related adverse event incidence | 0% |
| C#C[C@]1(O)CC[C@H]2[C@@H]3CCc4cc(OC5CCCC5)ccc4[C@H]3CC[C@@]21C | African green monkey cells |  |  | 5 days |  | CC50 | 7.59 µM |
| COc1ncnn2ccc(-c3cnc4nc(C)n(Cc5nnc([C@@H](C)F)o5)c4c3)c12 |  |  | human | oral, dose not given, grade 5 |  | patients with amylase increased | 0% |
